Published values from different studies.
Each numbered part is a random draw from the data of one study; scales do not carry over between parts. Changes are numbered by the printed parent chain.

Block 1 — method: DHFR PCA, deep sequencing; matrix: yeast; added: (+)-ABA 0.11 µM; relative to: wild-type fitted maximum; direction: higher = stronger binding
Target: ABI1, truncated, D143A, DHFR fusion (Arabidopsis thaliana)
Notes: methotrexate growth selection, single substitutions
Starting sequence: PYL1, truncated, DHFR fusion (Arabidopsis thaliana); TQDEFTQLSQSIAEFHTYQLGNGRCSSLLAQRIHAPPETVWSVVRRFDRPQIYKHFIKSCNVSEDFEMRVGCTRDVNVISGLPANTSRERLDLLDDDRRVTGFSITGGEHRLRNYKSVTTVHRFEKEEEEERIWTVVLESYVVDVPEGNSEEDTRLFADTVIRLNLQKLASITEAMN
`I12H`: “relative binding score” 3.11%.
For `V161C`, “relative binding score” read 53.8%.
`R132E` — result for “relative binding score”: 59.6%.
Under “relative binding score”, `L91K` is recorded as -3.27%.
`E139C`: “relative binding score” 13.7%.
`D159K`: “relative binding score” -8.3%.
Under “relative binding score”, `N114F` is recorded as -7.41%.
Under “relative binding score”, `R32I` is recorded as 35.9%.
`M68E`: “relative binding score” 0.482%.
`I52D` — result for “relative binding score”: 44.6%.
Under “relative binding score”, `V76D` is recorded as 2.23%.
For `L8M`, “relative binding score” read 1.31%.
Under “relative binding score”, `E64K` is recorded as 51.1%.

Block 2 — target: CCNB2, cyclin fold, Cln2 fusion (human); method: yeast growth competition, sequencing; matrix: yeast; notes: strong parent motif; relative to: not given; direction: higher = stronger binding
Starting sequence: PKMYT1 docking peptide (human); SFEPRNLLSLFED; partner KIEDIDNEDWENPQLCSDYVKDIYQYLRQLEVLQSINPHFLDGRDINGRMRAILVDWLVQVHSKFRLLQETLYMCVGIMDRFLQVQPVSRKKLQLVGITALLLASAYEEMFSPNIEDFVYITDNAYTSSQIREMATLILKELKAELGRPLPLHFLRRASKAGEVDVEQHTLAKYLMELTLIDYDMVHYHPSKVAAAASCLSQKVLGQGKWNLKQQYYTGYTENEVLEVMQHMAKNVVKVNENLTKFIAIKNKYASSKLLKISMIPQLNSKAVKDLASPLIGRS
`SFCPRNLLSLFED [E3C]` — result for “normalised enrichment score”: 1.15.
`SFESRNLLSLFED [P4S]` — result for “normalised enrichment score”: 0.477.
Under “normalised enrichment score”, `SFEPRNLLSLFES [D13S]` is recorded as 1.2.
`SFEPRNLYSLFED [L8Y]` — result for “normalised enrichment score”: 1.52.
For `SFEPRNSLSLFED [L7S]`, “normalised enrichment score” read -0.406.
`SFTPRNLLSLFED [E3T]` — result for “normalised enrichment score”: 1.01.
`SFIPRNLLSLFED [E3I]` — result for “normalised enrichment score”: 1.25.
`SFEPLNLLSLFED [R5L]` — result for “normalised enrichment score”: 1.42.
`SFEPRNLLTLFED [S9T]` — result for “normalised enrichment score”: 1.3.
`SFEMRNLLSLFED [P4M]` — result for “normalised enrichment score”: 0.404.
For `SFEPRNLLSLFHD [E12H]`, “normalised enrichment score” read 0.12.
`SFEPRGLLSLFED [N6G]`: “normalised enrichment score” -0.371.
For `SFEPDNLLSLFED [R5D]`, “normalised enrichment score” read -0.267.
`SFEPRMLLSLFED [N6M]`: “normalised enrichment score” -1.04.

Block 3 — method: RNA Bind-n-Seq; form: RNA; matrix: in vitro; tested at: 200 nM; notes: whole 134-nt RNA, ends assumed; added: 150 mM LiCl; relative to: input library; direction: higher = stronger binding; each molecule: 7-deaza-guanosine replaces G
Target: Ras GTPase-activating protein-binding protein 1, full length (G3BP1, Homo sapiens, UniProt Q13283)
Sequence of UniProt Q13283 (whole entry, looked up): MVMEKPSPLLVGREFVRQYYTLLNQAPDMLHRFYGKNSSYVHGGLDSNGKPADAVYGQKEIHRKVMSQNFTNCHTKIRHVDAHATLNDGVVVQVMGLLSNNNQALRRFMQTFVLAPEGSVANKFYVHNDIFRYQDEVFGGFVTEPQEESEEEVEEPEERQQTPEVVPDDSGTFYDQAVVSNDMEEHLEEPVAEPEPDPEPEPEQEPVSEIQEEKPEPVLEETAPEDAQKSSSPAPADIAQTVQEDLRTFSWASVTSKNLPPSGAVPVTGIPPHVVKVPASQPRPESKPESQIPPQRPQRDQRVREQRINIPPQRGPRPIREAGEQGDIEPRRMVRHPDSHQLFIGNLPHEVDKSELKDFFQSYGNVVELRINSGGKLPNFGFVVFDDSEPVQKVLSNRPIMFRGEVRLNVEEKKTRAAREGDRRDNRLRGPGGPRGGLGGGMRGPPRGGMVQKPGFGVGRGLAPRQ
`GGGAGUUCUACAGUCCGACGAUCACCAUGCAGGUGGGCAUCUUUGGGAAGUGGGGCAAGGGGGGGAUAGGGAGGGGGGUAACACUUUGGGAAAAGGUGGUCCCAGGUCGUUUCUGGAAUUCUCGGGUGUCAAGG` has a log2 enrichment of 0.0542.
For `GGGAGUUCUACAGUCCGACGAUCUCCUGUGCUACACAUCGUAUGUACCGAAUCGGGUUUUUUUGGGUUUUUUUGGGUUUGGGAAAGUAUUAUGUUACGCCGUUCGGAUCUGCAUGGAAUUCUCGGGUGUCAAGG`, the log2 enrichment was 1.37.
`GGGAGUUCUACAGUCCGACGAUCUGGGAGGUGGAUUUUGUUUAUUAUUUUAGCUCAUUUCCAGGGGUGGGAAUUUUUUUUUAAUAUGUGUCAUGAAUAAAGUUGUUUUUGAAAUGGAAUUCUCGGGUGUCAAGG` gave a log2 enrichment of -0.607.
The log2 enrichment of `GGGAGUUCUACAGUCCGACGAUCACUUUGUCAGAUAUUGCUAGGGACCAGUGAGAUAGAUAAUCCAAAAAUAAUAAUUUGACUUUGGUUGAGUAUGUCAUUACCACAGUGUUAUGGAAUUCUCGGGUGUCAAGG` is reported as -2.11.
For `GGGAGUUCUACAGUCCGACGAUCCAAGUCCUGUGCUACACAUCGUAUGUACCGAAUCGGGGUGGGGUGGGGUUUGGGGAAAGUAUUAUGUUACGCCGUUCGGAUCUGCACUUCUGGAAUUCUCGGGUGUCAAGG`, the log2 enrichment was -0.679.
The log2 enrichment of `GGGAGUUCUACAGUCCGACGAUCUACUGCUCCUCAGCAGGAAGCGGAUGCUGAGGUGAACACAGAAACACUAAAUAAGUCCUCCCAGGGGAGCUCCUCGAGCACACAAUCAGCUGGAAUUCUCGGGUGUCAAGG` is reported as 0.986.
`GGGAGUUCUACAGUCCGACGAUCCAAGUCCUGUGCUACACAUCGUAUGUACCGAAUCGGUUUGGUUUUUUUGGUUUGGAAAGUAUUAUGUUACGCCGUUCGGAUCUGCACUUCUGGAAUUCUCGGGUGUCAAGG` has a log2 enrichment of -1.37.
`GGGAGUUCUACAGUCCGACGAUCGUCCUGUGCUACACAUCGUAUGUACCGAAUCAAACCCCCAAACCCCCCCAAAUUUAAAAAAGUAUUAUGUUACGCCGUUCGGAUCUGCACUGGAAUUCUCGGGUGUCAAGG` has a log2 enrichment of 0.327.

Mixed results
The fold induction of `PhoQ, residues 284 288 289 292 302 303 SMMNNA` is reported as 21.2 (PhoP, residues 12 14 15 18 19 TQAML (Escherichia coli, UniProt P23836); Sort-seq, measured: YFP reporter; E. coli; PhoQ-PhoP variant library, added: 10 µM Mg2+; relative to: high Mg2+ state, higher = stronger signaling).

For quick reference, copied from above (block 2):
`SFEPRNLLTLFED [S9T]` — result for “normalised enrichment score”: 1.3.
`SFEMRNLLSLFED [P4M]` — result for “normalised enrichment score”: 0.404.
For `SFEPRNLLSLFHD [E12H]`, “normalised enrichment score” read 0.12.
`SFEPRGLLSLFED [N6G]`: “normalised enrichment score” -0.371.
